Assay results of several laboratories.
Compare with care: the assays were run in different laboratories.

Nc1nc2cc(CC[C@H]3C[C@@H](n4ccc5c(N)ncnc54)[C@H](O)[C@@H]3O)ccc2cc1Br  GI50 (COLO 699; cell growth or viability, MTT; 6 days): > 1000 nM
CC(=C(c1ccc(O)cc1)c1ccc(Cl)cc1)c1ccc(Cl)cc1  GI50 (EKVX; cell growth or viability, SRB): 820 nM
Cc1ccc(Nc2ncc3c(n2)N(C2CC2)C(=O)N(c2cc(NC(=O)c4cccc(C(F)(F)F)c4)ccc2C)C3)cn1  GI50 (Hep3B; cell growth or viability, ATP luminescence; 72 h): 1070 nM
CCN1CCN(Cc2ccc(C(=O)Nc3ccc(C)c(NCc4cnc5[nH]ccc5c4OC)c3)cc2C(F)(F)F)CC1  GI50 (SK-BR-3; cell growth or viability; 48 h): 3070 nM
COC(C(=NOCc1ccc([N+](=O)[O-])cc1)C(O)C(C)O)C1Cc2cc3cc(OC4CC(OC5CC(O)C(O)C(C)O5)C(O)C(C)O4)c(C)c(O)c3c(O)c2C(=O)C1OC1CC(OC2CC(OC3CC(C)(O)C(O)C(C)O3)C(O)C(C)O2)C(O)C(C)O1 (stereo not shown)  GI50 (TC-32; cell growth; 72 h): 75 nM
Cc1ccc(Nc2ncc3c(n2)N(C)C(=O)N(c2cc(NC(=O)c4ccccc4)ccc2C)C3)cn1  GI50 (Hep3B; cell growth or viability, ATP luminescence; 72 h): 8660 nM
COC(C(=NOCC(=O)Nc1ccccc1)C(O)C(C)O)C1Cc2cc3cc(OC4CC(OC5CC(O)C(O)C(C)O5)C(O)C(C)O4)c(C)c(O)c3c(O)c2C(=O)C1OC1CC(OC2CC(OC3CC(C)(O)C(O)C(C)O3)C(O)C(C)O2)C(O)C(C)O1 (stereo not shown)  GI50 (TC-32; cell growth; 72 h): 36 nM
CC/C=C\C/C=C\C/C=C\C/C=C\C/C=C\C/C=C\CCC(=O)Nc1ccn(C2OC(CO)C(O)C2(F)F)c(=O)n1 (stereo not shown)  GI50 (OVCAR-5; cell growth or viability, SRB): 82.1 nM
CS(=O)(=O)c1ccc(-c2nnc(/C=C/c3nnc(-c4ccc(C#N)cc4)o3)n2-c2ccccc2Cl)nc1  GI50 (COLO 320DM; cell growth or viability, MTT; 5 days): 434 nM
CC(Cc1ccc(Cl)cc1)=C(c1ccc(Cl)cc1)c1ccc(OCCN(C)C)cc1  GI50 (RXF 393; cell growth or viability): 3450 nM
COC(C(=NOCCCCc1c[nH]c2ccccc12)C(O)C(C)O)C1Cc2cc3cc(OC4CC(OC5CC(O)C(O)C(C)O5)C(O)C(C)O4)c(C)c(O)c3c(O)c2C(=O)C1OC1CC(OC2CC(OC3CC(C)(O)C(O)C(C)O3)C(O)C(C)O2)C(O)C(C)O1 (stereo not shown)  GI50 (TC-32; cell growth; 72 h): 60 nM
Cc1nc(F)ccc1-c1cc(Cn2ccn(C)c2=N)cc(C(=O)NCc2ccc(Cl)c(Cl)c2)c1  GI50 (MV4-11 p53 shRNA_427; cell proliferation; 72 h): 8000 nM
COC(C(=NOCC(=O)Nc1ccncc1)C(O)C(C)O)C1Cc2cc3cc(OC4CC(OC5CC(O)C(O)C(C)O5)C(O)C(C)O4)c(C)c(O)c3c(O)c2C(=O)C1OC1CC(OC2CC(OC3CC(C)(O)C(O)C(C)O3)C(O)C(C)O2)C(O)C(C)O1 (stereo not shown)  GI50 (TC-32; cell growth; 72 h): 81 nM
CCN1C(=O)N(c2cc(NC(=O)c3cccc(C(F)(F)F)c3)ccc2C)Cc2cnc(Nc3ccc(C)nc3)nc21  GI50 (Huh-7; cell growth or viability, ATP luminescence; 72 h): 57 nM
COC(=O)c1cc(=O)[nH]c2c(-c3cc(OC)c(OC)c(OC)c3)csc12  GI50 (best of six cancer lines; SRB): < 10000 nM
Cc1ccc(Nc2ncc3c(n2)N(Cc2ccccc2)C(=O)N(c2cc(NC(=O)c4cccc(C(F)(F)F)c4)ccc2C)C3)cn1  GI50 (Huh-7; cell growth or viability, ATP luminescence; 72 h): 118 nM
CON=C(C(O)C(C)O)C(OC)C1Cc2cc3cc(OC4CC(OC5CC(O)C(O)C(C)O5)C(O)C(C)O4)c(C)c(O)c3c(O)c2C(=O)C1OC1CC(OC2CC(OC3CC(C)(O)C(O)C(C)O3)C(O)C(C)O2)C(O)C(C)O1 (stereo not shown)  GI50 (TC-32; cell growth; 72 h): 86 nM
Cc1ccc(Nc2ncc3c(n2)N(C)C(=O)N(c2cc(NC(=O)c4cc(N5CCC(O)CC5)cc(C(F)(F)F)c4)ccc2C)C3)cn1  GI50 (Huh-7; cell growth or viability, ATP luminescence; 72 h): 37 nM
COC(C(=NOCC(=O)Nc1cccnc1)C(O)C(C)O)C1Cc2cc3cc(OC4CC(OC5CC(O)C(O)C(C)O5)C(O)C(C)O4)c(C)c(O)c3c(O)c2C(=O)C1OC1CC(OC2CC(OC3CC(C)(O)C(O)C(C)O3)C(O)C(C)O2)C(O)C(C)O1 (stereo not shown)  GI50 (TC-32; cell growth; 72 h): 77 nM
Cc1ccc(NC(=O)c2cccc(C(F)(F)F)c2)cc1N1Cc2cnc(N)nc2N(C)C1=O  GI50 (Huh-7; cell growth or viability, ATP luminescence; 72 h): 531 nM
COC(C(=NOCC(=O)NCCc1c[nH]c2ccccc12)C(O)C(C)O)C1Cc2cc3cc(OC4CC(OC5CC(O)C(O)C(C)O5)C(O)C(C)O4)c(C)c(O)c3c(O)c2C(=O)C1OC1CC(OC2CC(OC3CC(C)(O)C(O)C(C)O3)C(O)C(C)O2)C(O)C(C)O1 (stereo not shown)  GI50 (TC-32; cell growth; 72 h): 189 nM
Cc1ccc(Nc2ncc3c(n2)N(c2ccccc2)C(=O)N(c2cc(NC(=O)c4cccc(C(F)(F)F)c4)ccc2C)C3)cn1  GI50 (Huh-7; cell growth or viability, ATP luminescence; 72 h): 162 nM
COC(C(=NOCC(=O)NCc1ccccc1)C(O)C(C)O)C1Cc2cc3cc(OC4CC(OC5CC(O)C(O)C(C)O5)C(O)C(C)O4)c(C)c(O)c3c(O)c2C(=O)C1OC1CC(OC2CC(OC3CC(C)(O)C(O)C(C)O3)C(O)C(C)O2)C(O)C(C)O1 (stereo not shown)  GI50 (TC-32; cell growth; 72 h): 115 nM
Cc1ccc(Nc2ncc3c(n2)N(C)C(=O)N(c2cc(NC(=O)c4ccc(CN5CCN(C)CC5)c(C(F)(F)F)c4)ccc2C)C3)cn1  GI50 (Huh-7; cell growth or viability, ATP luminescence; 72 h): 173 nM
CCC(=C(c1ccc(Cl)cc1)c1ccc(OCCCN(C)C)cc1)c1ccc(OC)cc1  GI50 (OVCAR-5; cell growth or viability): 6540 nM

For quick reference, copied from above:
COC(C(=NOCC(=O)NCc1ccccc1)C(O)C(C)O)C1Cc2cc3cc(OC4CC(OC5CC(O)C(O)C(C)O5)C(O)C(C)O4)c(C)c(O)c3c(O)c2C(=O)C1OC1CC(OC2CC(OC3CC(C)(O)C(O)C(C)O3)C(O)C(C)O2)C(O)C(C)O1 (stereo not shown)  GI50 (TC-32; cell growth; 72 h): 115 nM
Cc1ccc(Nc2ncc3c(n2)N(C)C(=O)N(c2cc(NC(=O)c4ccc(CN5CCN(C)CC5)c(C(F)(F)F)c4)ccc2C)C3)cn1  GI50 (Huh-7; cell growth or viability, ATP luminescence; 72 h): 173 nM
CCC(=C(c1ccc(Cl)cc1)c1ccc(OCCCN(C)C)cc1)c1ccc(OC)cc1  GI50 (OVCAR-5; cell growth or viability): 6540 nM
